Assay results gathered from unrelated publications.
Lines come from different studies, so protocols differ. ± gives the spread as reported.
CA2: Carbonic anhydrase 2 (CA2, Homo sapiens, UniProt P00918)
CA2 A65S/F130A/I91T/L203N/N67K/V134S: Carbonic anhydrase 2 (CA2, Homo sapiens, UniProt P00918, A65S/F130A/I91T/L203N/N67K/V134S)

target	test	conditions	endpoint	result	Structure (SMILES)
CA2	esterase activity, inhibitor	10 min preincubation, pH 8.0, added: p-nitrophenyl acetate	Ki	6900 ± 1000 µM	COc1coc(C)cc1=S
CA2			Ki	0.804 µM	NS(=O)(=O)c1ccc(N/N=C2\C(=O)N(CC(=O)Nc3ccccc3Cl)c3ccccc32)cc1
CA2	enzyme activity, inhibitor		IC50	0.045 µM	NS(=O)(=O)c1ccc(NC(=O)NN[C@@H]2OC[C@H](O)[C@H](O)[C@H]2O)cc1
CA2	enzyme activity, inhibitor, absorbance		IC50	0.59 µM	C#CCN(CCCOC(=O)NCCc1ccc(S(N)(=O)=O)cc1)c1cccc(C(F)(F)F)c1
CA2 A65S/F130A/I91T/L203N/N67K/V134S		pH 7	Kd	0.0125 µM	NS(=O)(=O)c1c(F)c(F)c(S(=O)(=O)CCO)c(N[C@H]2CCc3ccccc32)c1F
CA2	enzyme activity, inhibitor, stopped-flow		Ki	0.17 µM	COc1cc(-c2ccnc3nc(Nc4ccc(S(N)(=O)=O)cc4)nn23)cc(OC)c1OC
CA2	enzyme activity, inhibitor		IC50	1.02 µM	Cc1ccc(S(=O)(=O)Nc2ccccc2Sc2ccccc2)cc1
CA2	enzyme activity, inhibitor, absorbance		IC50	0.07 µM	C[C@@H]1O[C@H](NC(=O)c2ccc(S(N)(=O)=O)cc2)[C@H](O)[C@H](O)[C@H]1O
CA2 A65S/F130A/I91T/L203N/N67K/V134S		pH 7	Kd	2 µM	Cc1cc(S(N)(=O)=O)c(Cl)cc1NC1CCCCC1
CA2	enzyme activity, inhibitor		IC50	0.015 µM	NS(=O)(=O)c1ccc(NC(=O)NN[C@@H]2O[C@H](CO)[C@@H](O)[C@H](O)[C@H]2O)cc1
CA2			Ki	0.42 µM	NS(=O)(=O)c1ccc(N/N=C2\C(=O)N(CC(=O)Nc3ccccc3Br)c3ccccc32)cc1
CA2	enzyme activity, inhibitor		Ki	0.0972 µM	CC(=O)Nc1ncc(S(N)(=O)=O)s1
CA2	enzyme activity, inhibitor, absorbance		IC50	1.8 µM	NS(=O)(=O)c1ccc(N2N=C(c3ccccc3O)CC2c2ccc(Br)cc2)cc1 (stereo not drawn)
CA2			Ki	> 100 µM	CC(=O)Nc1ccc(S(=O)(=O)N2CCN(C(=O)c3cc4ccccc4oc3=O)CC2)cc1
CA2 A65S/F130A/I91T/L203N/N67K/V134S		pH 7	Kd	0.025 µM	NS(=O)(=O)c1c(F)c(F)c(S(=O)(=O)CCc2ccccc2)c(NC2CCCCCCCCCCC2)c1F
CA2	enzyme activity, inhibitor		IC50	0.047 µM	NS(=O)(=O)c1ccc(NC(=O)NN[C@@H]2O[C@H](CO)[C@@H](O)[C@H]2O)cc1
CA2 A65S/F130A/I91T/L203N/N67K/V134S		pH 7	Kd	0.175 µM	NS(=O)(=O)c1c(F)c(F)c(SCCc2ccc(C(=O)O)cc2)c(F)c1F
CA2	enzyme activity, inhibitor, absorbance		IC50	0.18 µM	COc1ccc(C(=O)Nc2cccc(S(N)(=O)=O)c2)cc1OC
CA2			Kd	0.53 µM	COC(=O)CCCNC(=O)c1cc(S(N)(=O)=O)c(Cl)cc1NC1CCCCC1
CA2	enzyme activity, inhibitor, stopped-flow		Ki	0.126 µM	COc1ccc(/C(C)=N/NC(=O)CSc2nc3ccccc3c(=O)n2CCc2ccc(S(N)(=O)=O)cc2)cc1
CA2 A65S/F130A/I91T/L203N/N67K/V134S		pH 7	Kd	2 µM	NS(=O)(=O)c1c(F)c(F)c([S+]([O-])CCO)c(F)c1NC1CCCCCCC1 (stereo not drawn)
CA2	enzyme activity, inhibitor, stopped-flow		Ki	0.185 µM	COc1ccccc1/C=N/NC(=O)CSc1nc2ccccc2c(=O)n1CCc1ccc(S(N)(=O)=O)cc1
CA2 A65S/F130A/I91T/L203N/N67K/V134S		pH 7	Kd	0.01 µM	NS(=O)(=O)c1cc(C(=O)NCCCC(=O)O)c(S(=O)(=O)c2ccccc2)cc1Cl
CA2	CO2 hydration activity, inhibitor, stopped-flow	pH 7.4, 25 °C	IC50	0.52 ± 0.04 µM	CC(C)c1ccc2c(c1)CC[C@H]1[C@](C)(C(=O)O)CCC[C@]21C

Excerpt of the above:
target	test	conditions	endpoint	result	Structure (SMILES)
CA2 A65S/F130A/I91T/L203N/N67K/V134S		pH 7	Kd	2 µM	Cc1cc(S(N)(=O)=O)c(Cl)cc1NC1CCCCC1
CA2	enzyme activity, inhibitor		IC50	0.015 µM	NS(=O)(=O)c1ccc(NC(=O)NN[C@@H]2O[C@H](CO)[C@@H](O)[C@H](O)[C@H]2O)cc1
CA2			Ki	0.42 µM	NS(=O)(=O)c1ccc(N/N=C2\C(=O)N(CC(=O)Nc3ccccc3Br)c3ccccc32)cc1
